Measurements of several laboratories.
Numbered parts are unrelated; each lists some results of a single study.

Series 1 — technique: protein binding microarray; form: double-stranded DNA, one strand shown; matrix: in vitro; concentration: not given; reference: not given; direction: higher = stronger binding; quantity: E-score
Target: Histone acetyltransferase KAT6A, both winged helices, GST fusion (KAT6A, Homo sapiens, UniProt Q92794, residues 1-181)
Setting: 8-mer, flanks averaged, mean of 2 arrays, mostly near background
Construct (chain): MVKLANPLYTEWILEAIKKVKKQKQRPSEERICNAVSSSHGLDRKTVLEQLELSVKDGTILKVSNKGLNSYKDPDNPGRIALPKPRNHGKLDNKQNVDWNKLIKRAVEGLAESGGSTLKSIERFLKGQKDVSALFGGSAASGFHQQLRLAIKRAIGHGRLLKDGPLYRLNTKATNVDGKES
Sequence = CAGCCGTA; value = 0.202
Sequence = CCAACCAC; value = -0.204
Sequence = GGCCCCAC; value = -0.135
Sequence = AAGCAGAG; value = -0.242
Sequence = AGATAGTC; value = -0.0678
Sequence = GCGGCTCC; value = 0.266
Sequence = CGTATGCA; value = 0.0726

Series 2 — technique: universal PBM; form: double-stranded DNA, one strand shown; matrix: in vitro; concentration: 600 nM; direction: higher = stronger binding; quantity: E-score
Target: Sal-like protein 4, full length isoform A (SALL4, Homo sapiens, UniProt Q9UJQ4, residues 1-1053)
Sequence of UniProt Q9UJQ4 (whole entry, looked up): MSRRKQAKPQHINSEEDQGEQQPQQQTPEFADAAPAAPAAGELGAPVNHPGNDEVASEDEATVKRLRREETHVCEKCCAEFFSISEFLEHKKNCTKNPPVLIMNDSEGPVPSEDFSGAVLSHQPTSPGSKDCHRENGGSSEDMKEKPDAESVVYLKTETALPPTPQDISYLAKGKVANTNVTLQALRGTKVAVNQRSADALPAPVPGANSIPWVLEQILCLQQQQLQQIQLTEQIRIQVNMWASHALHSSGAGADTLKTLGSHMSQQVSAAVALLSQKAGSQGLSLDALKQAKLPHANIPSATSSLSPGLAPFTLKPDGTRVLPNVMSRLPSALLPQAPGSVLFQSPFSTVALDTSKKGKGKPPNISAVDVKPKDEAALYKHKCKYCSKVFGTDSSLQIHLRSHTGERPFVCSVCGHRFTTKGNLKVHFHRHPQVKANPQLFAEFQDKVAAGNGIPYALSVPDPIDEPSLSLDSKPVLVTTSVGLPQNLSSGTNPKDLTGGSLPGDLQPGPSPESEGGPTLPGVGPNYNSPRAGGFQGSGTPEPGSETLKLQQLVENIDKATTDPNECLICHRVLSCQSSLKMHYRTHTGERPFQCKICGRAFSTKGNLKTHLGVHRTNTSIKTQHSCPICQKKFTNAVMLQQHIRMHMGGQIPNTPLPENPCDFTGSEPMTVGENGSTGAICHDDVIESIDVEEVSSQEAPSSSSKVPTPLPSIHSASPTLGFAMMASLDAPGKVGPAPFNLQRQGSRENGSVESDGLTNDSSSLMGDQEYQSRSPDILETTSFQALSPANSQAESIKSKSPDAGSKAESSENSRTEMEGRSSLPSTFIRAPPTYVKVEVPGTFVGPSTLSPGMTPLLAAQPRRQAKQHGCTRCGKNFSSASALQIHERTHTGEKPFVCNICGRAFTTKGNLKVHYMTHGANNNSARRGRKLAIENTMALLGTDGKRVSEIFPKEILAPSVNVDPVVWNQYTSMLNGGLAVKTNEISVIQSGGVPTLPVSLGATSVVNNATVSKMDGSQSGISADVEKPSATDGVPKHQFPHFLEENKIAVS
Setting: 8-mer, flanks averaged, mean of replicates
Sequence = CCTGGAGA; value = -0.177
Sequence = CGAACAGA; value = 0.0756
Sequence = ATTGCATA; value = 0.239
Sequence = CGACGGAG; value = -0.129
Sequence = ACATCTTC; value = 0.0675
Sequence = ATGGGTGG; value = -0.15

Series 3 — technique: protein-binding microarray; form: double-stranded DNA, one strand shown; matrix: in vitro; concentration: 250 nM; setting: 60-bp whole probe; with: salmon DNA 0.4 mg/ml; reference: random background probes; direction: higher = stronger binding; quantity: log fluorescence; shared flanks, not repeated: GCCTAGCAC … GTCTTGATTCGCTTGACGCTGCTG
Target: Interferon regulatory factor 5, full length, phosphomimetic (IRF5, Homo sapiens, UniProt Q13568-2, residues 1-514, K96S/S451D/S453D/S456D/S462D)
Sequence = TCACATTTTGTTTTTCAACTGTGCTAG; value = 1.5 z-score
Sequence = TTAGACATCAGACTGGATTAGTGCTAG; value = -0.154 z-score
Sequence = TCACTTTTCATGCTCTTACTGTGCTAG; value = 1.66 z-score
Sequence = GACGTTTTCGGGACTGGGGACGTGCTA; value = 2.61 z-score
Sequence = TCAACTTGGAATTTCCCACTGTGCTAG; value = 0.17 z-score
Sequence = GACGATCTCAGTATCGAAACGTGCTAG; value = 4.61 z-score

Mixed results
Molecule = PhoQ, residues 284 288 289 292 302 303 AEGLLW; target = PhoP, residues 12 14 15 18 19 LHATL (Escherichia coli, UniProt P23836); test = Sort-seq, item: YFP reporter; system = E. coli; conditions = PhoQ-PhoP variant library, with: 10 µM Mg2+; how to read = reference: high Mg2+ state, higher = stronger signaling; quantity = fold induction; value = 8.72

A few entries again (series 1):
Sequence = CAGCCGTA; value = 0.202
